Experimental data from different studies.
Lines come from different studies, so protocols differ. Several values in a cell are separate wells, animals, samples, runs or records. Numbers after ± are the reported error.

CN1CCN(c2ccc(OC(F)(F)F)c(Nc3ncc4c(n3)-c3c(c(C(N)=O)nn3CCO)CC4)c2)CC1 — plasma concentration (LC-MS/MS; human, plasma; oral, 12 mg/m2, 48 h post-dose): 7.2 ng/mL and 10.9 ng/mL and 7.18 ng/mL and 11.8 ng/mL and 3.1 ng/mL and 28.4 ng/mL
Cc1cc(N(CCOS(C)(=O)=O)CCOS(C)(=O)=O)ccc1C=O — plasma concentration (human, plasma; intravenous, 12 mg/m^2, 5 min): 4.7 ng/mL
Cn1c(=O)c2[nH]cnc2n(C)c1=O — plasma concentration (human, both sexes, plasma; median): 32500 nM
CCCN(CCC)S(=O)(=O)c1ccc(C(=O)O)cc1 — plasma concentration (healthy male humans, plasma; oral, dose not given, 2 h, 1 h before cocktail): 379000 nM
COCCCOc1ccnc(C[S+]([O-])c2nc3ccccc3[nH]2)c1C (stereo not drawn) — plasma concentration (healthy male humans, plasma; oral, 40 mg/day for -4 days, 1.5 h): 184 ng/mL
O=C(O)[C@H]1O[C@@H](Oc2ccc(/C=C\c3cc(O)cc(O)c3)cc2)[C@H](O)[C@@H](O)[C@@H]1O — plasma concentration (human, plasma; median): 436 nM
COc1cc2c(cc1OC)CN(CCc1ccc(NC(=O)c3cc(OC)c(OC)cc3NC(=O)c3cnc4ccccc4c3)cc1)CC2 — plasma concentration (human, plasma; intravenous infusion, 5.9 mg/kg, 60 min): 2810 nM and 1910 nM and 2110 nM
C[C@H](CCC(=O)NCCS(=O)(=O)O)[C@H]1CC[C@H]2[C@@H]3CC[C@@H]4C[C@H](OS(=O)(=O)O)CC[C@]4(C)[C@H]3CC[C@]12C — plasma concentration (healthy human volunteers, plasma; dose not given, 0 h, control phase, probe drugs alone): 122 ± 41 nM
CC1(C)CCC(CN2CCN(c3ccc(C(=O)NS(=O)(=O)c4ccc(NCC5CCOCC5)c([N+](=O)[O-])c4)c(Oc4cnc5[nH]ccc5c4)c3)CC2)=C(c2ccc(Cl)cc2)C1 — plasma concentration (UPLC-MS/MS; human patients; oral, dose not given, 6 h post-dose, steady state, median): 1850 ng/mL
Cn1c(=O)[nH]c2nc[nH]c2c1=O — plasma concentration (human, both sexes, plasma; median): 11700 nM
CO[C@H]1/C=C/O[C@@]2(C)Oc3c(C)c(O)c4c(O)c(c(/C=N/N5CCN(C)CC5)c(O)c4c3C2=O)NC(=O)/C(C)=C\C=C\[C@H](C)[C@H](O)[C@@H](C)[C@@H](O)[C@@H](C)[C@H](OC(C)=O)[C@@H]1C — plasma concentration (healthy male humans, plasma; oral, dose not given, 4 h, with cocktail): 6720 ng/mL
O=C(O)[C@H]1O[C@@H](Oc2cc(O)cc(/C=C/c3ccc(O)cc3)c2)[C@H](O)[C@@H](O)[C@@H]1O — plasma concentration (human, plasma; median): 781 nM
C[C@H](CCC(=O)NCC(=O)O)[C@H]1CC[C@H]2[C@@H]3CC[C@@H]4C[C@H](OS(=O)(=O)O)CC[C@]4(C)[C@H]3C[C@H](O)[C@]12C — plasma concentration (healthy human volunteers, plasma; dose not given, 0 h, baseline phase, no drug): 256 ± 72 nM
C[C@@H](O)[C@H]1C(=O)N2C(C(=O)O)=C(SCCN=CN)C[C@H]12 — plasma concentration (human; intravenous, 500 mg single, 0.25 h): 70100 nM
C[C@H](CCC(=O)NCC(=O)O)[C@H]1CC[C@H]2[C@@H]3[C@H](O)C[C@@H]4C[C@H](O)CC[C@]4(C)[C@H]3CC[C@]12C — plasma concentration (healthy human volunteers, plasma; dose not given, 0 h, control phase, probe drugs alone): 485 ± 81 nM
O=C(Nc1cnccc1Cl)N1CCN(Cc2ccc3c(c2)OC(F)(F)O3)CC1 — plasma concentration (human, plasma; 10 mg single dose, 24 h post dose day 1): 6.21 ng/mL and 4.4 ng/mL
C[C@H](CCC(=O)O)[C@H]1CC[C@H]2[C@@H]3CC[C@@H]4C[C@H](OS(=O)(=O)O)CC[C@]4(C)[C@H]3CC[C@]12C — plasma concentration (healthy human volunteers, plasma; dose not given, 0 h, control phase, probe drugs alone): 292 ± 17 nM
N#Cc1ccc(C(c2ccc(C#N)cc2)n2cncn2)cc1 — plasma concentration (human patients, plasma; oral, 12.5 mg daily, day of surgery): 172 ± 68.4 ng/mL
C[C@H](CCC(=O)NCC(=O)O)[C@H]1CC[C@H]2[C@@H]3[C@H](O)C[C@@H]4C[C@H](O)CC[C@]4(C)[C@H]3C[C@H](O)[C@]12C — plasma concentration (healthy human volunteers, plasma; oral, dose not given, 0 h, control phase, probe drugs alone): 83.3 ± 24.3 nM
O=S(=O)(O)Oc1cc(O)cc(/C=C/c2ccc(O)cc2)c1 — plasma concentration (human, plasma; median): 997 nM
O=C(O)CCCCCCCCCCCCCCCCC(=O)O — plasma concentration (healthy human volunteers, plasma; dose not given, 0 h, baseline phase, no drug): 89.4 ± 6 nM
Cn1c(=O)c2c(ncn2C)n(C)c1=O — plasma concentration (human, both sexes, plasma; mean): 179000 nM
O=C(O)CCCCCCCCCCCCC(=O)O — plasma concentration (healthy human volunteers, plasma; dose not given, 0 h, control phase, probe drugs alone): 58.3 ± 7.7 nM
O=C(O)c1ccc(O)c(O[C@@H]2O[C@H](C(=O)O)[C@@H](O)[C@H](O)[C@H]2O)c1 — plasma concentration (human, plasma; dose not given, mean): not detected
C[C@H](CCC(=O)NCCS(=O)(=O)O)[C@H]1CC[C@H]2[C@@H]3[C@H](O)C[C@@H]4C[C@H](O)CC[C@]4(C)[C@H]3C[C@H](O)[C@]12C — plasma concentration (healthy human volunteers, plasma; dose not given, 0 h, control phase, probe drugs alone): 17.2 ± 4.7 nM
Cn1c(=O)[nH]c(=O)c2[nH]cnc21 — plasma concentration (human, both sexes, plasma; median): 4310 nM
O=C(C1CCCCC1)N1CC(=O)N2CCc3ccccc3[C@@H]2C1 — plasma concentration (human; oral, 60 mg/kg, 4 h): 26 ng/mL
